Results gathered from unrelated publications.
A part holds a random share of what one study measured.
UniProt Q08881, sequence (whole entry, looked up): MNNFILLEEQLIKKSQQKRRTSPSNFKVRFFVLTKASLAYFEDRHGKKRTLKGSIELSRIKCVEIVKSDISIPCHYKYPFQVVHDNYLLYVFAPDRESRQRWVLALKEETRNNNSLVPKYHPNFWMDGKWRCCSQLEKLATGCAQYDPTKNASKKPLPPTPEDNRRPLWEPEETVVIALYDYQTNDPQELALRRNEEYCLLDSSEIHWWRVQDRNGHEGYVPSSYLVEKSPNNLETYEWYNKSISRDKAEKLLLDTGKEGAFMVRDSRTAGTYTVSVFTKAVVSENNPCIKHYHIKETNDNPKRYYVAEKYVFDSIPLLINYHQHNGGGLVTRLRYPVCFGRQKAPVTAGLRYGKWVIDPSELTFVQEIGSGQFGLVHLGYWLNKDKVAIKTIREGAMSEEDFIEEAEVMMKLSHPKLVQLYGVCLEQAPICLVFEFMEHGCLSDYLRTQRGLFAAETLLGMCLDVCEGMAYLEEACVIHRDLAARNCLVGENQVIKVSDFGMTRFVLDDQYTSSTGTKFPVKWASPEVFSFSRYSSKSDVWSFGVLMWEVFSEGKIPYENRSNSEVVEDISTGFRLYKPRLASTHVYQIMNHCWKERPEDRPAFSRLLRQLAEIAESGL
UniProt Q9Y2K2, sequence (whole entry, looked up): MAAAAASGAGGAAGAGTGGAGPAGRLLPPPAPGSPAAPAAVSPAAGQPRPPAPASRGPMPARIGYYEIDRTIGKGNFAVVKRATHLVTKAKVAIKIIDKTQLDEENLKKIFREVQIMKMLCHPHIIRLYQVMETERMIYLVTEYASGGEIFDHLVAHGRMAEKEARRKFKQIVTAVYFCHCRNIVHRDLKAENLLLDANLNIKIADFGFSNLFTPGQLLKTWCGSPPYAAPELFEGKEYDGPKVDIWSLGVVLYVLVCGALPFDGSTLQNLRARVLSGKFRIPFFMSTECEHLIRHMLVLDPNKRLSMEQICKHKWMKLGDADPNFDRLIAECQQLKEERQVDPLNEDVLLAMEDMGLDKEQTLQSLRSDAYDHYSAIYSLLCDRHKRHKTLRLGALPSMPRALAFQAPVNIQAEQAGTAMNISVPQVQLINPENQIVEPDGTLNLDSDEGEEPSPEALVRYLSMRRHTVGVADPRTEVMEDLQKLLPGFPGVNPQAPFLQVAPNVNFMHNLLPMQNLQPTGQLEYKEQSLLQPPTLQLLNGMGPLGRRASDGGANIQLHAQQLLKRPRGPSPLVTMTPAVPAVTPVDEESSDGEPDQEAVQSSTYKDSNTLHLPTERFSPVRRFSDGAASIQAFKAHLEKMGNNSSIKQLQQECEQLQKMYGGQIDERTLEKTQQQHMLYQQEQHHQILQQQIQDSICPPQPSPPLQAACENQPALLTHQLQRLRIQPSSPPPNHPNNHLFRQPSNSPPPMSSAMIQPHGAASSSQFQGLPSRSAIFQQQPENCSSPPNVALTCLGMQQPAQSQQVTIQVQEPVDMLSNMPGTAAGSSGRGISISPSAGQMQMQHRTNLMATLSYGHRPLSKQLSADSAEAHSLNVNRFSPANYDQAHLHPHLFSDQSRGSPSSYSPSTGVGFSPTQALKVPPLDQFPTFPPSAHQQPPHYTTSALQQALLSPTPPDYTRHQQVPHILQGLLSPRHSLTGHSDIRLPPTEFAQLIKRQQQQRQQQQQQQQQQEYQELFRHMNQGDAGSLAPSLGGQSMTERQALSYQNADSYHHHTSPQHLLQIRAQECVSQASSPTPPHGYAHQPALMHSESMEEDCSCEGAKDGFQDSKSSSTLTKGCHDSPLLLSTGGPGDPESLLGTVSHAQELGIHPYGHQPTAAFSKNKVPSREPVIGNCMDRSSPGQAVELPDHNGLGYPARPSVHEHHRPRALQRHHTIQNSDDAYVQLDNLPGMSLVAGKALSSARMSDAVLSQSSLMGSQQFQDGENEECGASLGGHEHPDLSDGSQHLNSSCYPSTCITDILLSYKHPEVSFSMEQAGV
UniProt P11802, sequence (whole entry, looked up): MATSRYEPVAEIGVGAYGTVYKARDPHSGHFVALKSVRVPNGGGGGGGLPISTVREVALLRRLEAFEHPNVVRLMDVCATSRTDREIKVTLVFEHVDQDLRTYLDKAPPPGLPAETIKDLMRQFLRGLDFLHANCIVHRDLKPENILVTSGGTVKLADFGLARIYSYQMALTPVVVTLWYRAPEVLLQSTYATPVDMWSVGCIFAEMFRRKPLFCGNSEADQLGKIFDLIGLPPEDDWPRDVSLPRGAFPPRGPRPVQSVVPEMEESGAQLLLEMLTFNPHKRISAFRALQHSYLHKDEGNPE
UniProt P35626, sequence (whole entry, looked up): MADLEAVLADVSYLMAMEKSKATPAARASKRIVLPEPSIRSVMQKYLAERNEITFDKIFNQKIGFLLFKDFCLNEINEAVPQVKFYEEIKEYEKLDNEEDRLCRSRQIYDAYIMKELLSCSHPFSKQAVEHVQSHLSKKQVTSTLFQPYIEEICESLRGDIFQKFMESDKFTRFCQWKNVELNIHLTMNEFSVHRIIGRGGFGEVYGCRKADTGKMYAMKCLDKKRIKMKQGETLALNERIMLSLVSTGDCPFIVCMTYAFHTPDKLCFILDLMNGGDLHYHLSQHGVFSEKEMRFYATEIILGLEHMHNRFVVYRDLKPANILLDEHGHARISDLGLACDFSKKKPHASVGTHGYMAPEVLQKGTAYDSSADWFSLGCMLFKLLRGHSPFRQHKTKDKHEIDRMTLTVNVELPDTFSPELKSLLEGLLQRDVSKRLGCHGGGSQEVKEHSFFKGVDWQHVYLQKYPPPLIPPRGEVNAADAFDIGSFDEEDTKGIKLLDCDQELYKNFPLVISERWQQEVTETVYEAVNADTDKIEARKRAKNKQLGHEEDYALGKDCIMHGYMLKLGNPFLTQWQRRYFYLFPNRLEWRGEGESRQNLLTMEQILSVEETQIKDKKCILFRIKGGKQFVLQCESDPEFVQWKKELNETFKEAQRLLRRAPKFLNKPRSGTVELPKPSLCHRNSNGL

Series 1
Target: Platelet-derived growth factor receptor alpha (PDGFRA, Homo sapiens, UniProt P16234)
UniProt P16234, sequence (whole entry, looked up): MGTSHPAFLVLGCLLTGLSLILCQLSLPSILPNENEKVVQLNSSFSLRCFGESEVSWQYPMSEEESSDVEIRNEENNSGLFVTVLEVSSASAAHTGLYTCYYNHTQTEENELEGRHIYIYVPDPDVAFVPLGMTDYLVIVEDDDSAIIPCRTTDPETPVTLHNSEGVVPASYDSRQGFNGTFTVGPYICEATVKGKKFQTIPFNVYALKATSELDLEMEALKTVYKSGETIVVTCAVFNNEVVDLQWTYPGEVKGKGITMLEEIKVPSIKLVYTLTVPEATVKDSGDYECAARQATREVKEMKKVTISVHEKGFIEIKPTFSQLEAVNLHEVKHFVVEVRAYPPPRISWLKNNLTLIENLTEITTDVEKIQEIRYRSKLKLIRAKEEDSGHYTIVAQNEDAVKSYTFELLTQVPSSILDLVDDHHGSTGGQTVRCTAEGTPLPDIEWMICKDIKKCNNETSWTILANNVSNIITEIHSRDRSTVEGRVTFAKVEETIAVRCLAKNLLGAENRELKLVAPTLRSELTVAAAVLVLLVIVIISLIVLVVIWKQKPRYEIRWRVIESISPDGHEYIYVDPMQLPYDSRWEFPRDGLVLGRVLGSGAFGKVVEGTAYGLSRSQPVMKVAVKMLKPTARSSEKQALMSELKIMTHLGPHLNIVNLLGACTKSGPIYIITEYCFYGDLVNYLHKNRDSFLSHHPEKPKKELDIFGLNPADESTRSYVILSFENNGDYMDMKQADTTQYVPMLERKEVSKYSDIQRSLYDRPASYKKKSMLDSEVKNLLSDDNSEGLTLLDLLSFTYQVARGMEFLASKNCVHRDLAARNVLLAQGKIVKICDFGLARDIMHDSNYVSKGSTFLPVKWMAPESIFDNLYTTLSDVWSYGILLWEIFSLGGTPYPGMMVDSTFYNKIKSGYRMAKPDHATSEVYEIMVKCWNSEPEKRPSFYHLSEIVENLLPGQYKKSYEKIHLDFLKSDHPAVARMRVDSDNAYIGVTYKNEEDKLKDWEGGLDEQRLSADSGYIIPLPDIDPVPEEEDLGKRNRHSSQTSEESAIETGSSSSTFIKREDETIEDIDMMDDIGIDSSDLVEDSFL
Read-out: enzyme activity
Mode: inhibitor
Tested at: 0.5 µM
Relative to: control
Endpoint: remaining activity
CCCNC(=O)Nc1ccc(Oc2ncnc3cc(OC)c(OC)cc23)cc1Cl: 92.2%
N#Cc1cnc2cnc(NCc3cccnc3)cc2c1Nc1ccc(F)c(Cl)c1: 94.3%
COc1ccc2c(c1)c(C1=C(c3c[nH]c4ccccc34)C(=O)NC1=O)cn2CCCN(C)C: 85.2%
O=C(c1cc2cc(O)ccc2[nH]1)c1cc2cc(O)ccc2[nH]1: 65.3%
COc1cccc(-c2cc(=O)c3ccccc3o2)c1N: 103%
Cc1cc(Nc2cc(N3CCN(C)CC3)nc(Sc3ccc(NC(=O)C4CC4)cc3)n2)[nH]n1: 71.4%
O=C1Nc2ccc(Br)cc2/C1=C/c1cc2c([nH]1)CCCC2: 76.2%
c1ccc(-c2n[nH]c3c2oc2ccccc23)cc1: 73.7%
O=C1Nc2ccccc2/C1=C\c1c(Cl)[nH]c2ccccc12: 88.7%
Oc1cccc(-c2nc(N3CCOCC3)c3oc4ncccc4c3n2)c1: 99.4%
CN(C)S(=O)(=O)c1ccc2c(c1)/C(=C/c1cc3c([nH]1)CCCC3)C(=O)N2: 93.7%
O=C1NC(=O)c2c1c1c3ccccc3[nH]c1n1cncc21: 84.4%
c1ccc2c(-c3ccncc3)c[nH]c2c1: 95%
O=c1cc(N2CCOCC2)oc2c(-c3ccccc3)cccc12: 94.6%
O=C1Cc2c([nH]c3ccc(Br)cc23)-c2ccccc2N1: 103%
Cc1ccc(S(=O)(=O)/C=C/C#N)cc1: 94.2%
O=C1NC(=O)c2c1c1c3ccccc3[nH]c1c1[nH]c3cc(Br)ccc3c21: 97.6%
COc1ccc(COc2ccc(Cc3cnc(N)nc3N)cc2OC)cc1: 99.4%
CCCCc1c(-c2ccc(OC)cc2)[nH]c2nccnc12: 90.2%

Series 2
Target: Calcium/calmodulin-dependent protein kinase type II subunit alpha (CAMK2A, Homo sapiens, UniProt Q9UQM7)
UniProt Q9UQM7, sequence (whole entry, looked up): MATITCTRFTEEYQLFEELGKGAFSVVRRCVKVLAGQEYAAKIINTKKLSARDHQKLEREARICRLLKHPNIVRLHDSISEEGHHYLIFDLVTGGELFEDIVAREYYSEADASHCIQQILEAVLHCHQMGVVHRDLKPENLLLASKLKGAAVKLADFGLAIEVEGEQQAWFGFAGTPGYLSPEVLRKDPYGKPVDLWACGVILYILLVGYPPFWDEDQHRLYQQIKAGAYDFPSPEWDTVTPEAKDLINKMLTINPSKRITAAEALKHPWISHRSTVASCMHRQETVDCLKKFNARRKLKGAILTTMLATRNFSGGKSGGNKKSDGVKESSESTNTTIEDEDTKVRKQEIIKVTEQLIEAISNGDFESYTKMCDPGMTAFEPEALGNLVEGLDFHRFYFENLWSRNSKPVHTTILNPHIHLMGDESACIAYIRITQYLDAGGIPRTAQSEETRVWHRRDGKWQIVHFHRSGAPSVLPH
Read-out: enzyme activity
Mode: inhibitor
Tested at: 10 µM
Endpoint: inhibition
CN[C@@H]1[C@@H](O)[C@@H](O[C@@H]2[C@@H](O)[C@H](O[C@H]3O[C@H](CN)[C@@H](O)[C@H](O)[C@H]3O)[C@@H](N)C[C@H]2NC(=O)[C@@H](O)CN)OC[C@]1(C)O: -1%
COc1ccccc1/C=C/C(=O)O: -6%
O=c1ccc2ccc(O)c(O)c2o1: -4%
O=c1cc(-c2ccc(O)c(O)c2)oc2cc(O)c([C@@H]3O[C@H](CO)[C@@H](O)[C@H](O)[C@H]3O)c(O)c12: -33%
O=c1ccn([C@@H]2O[C@H](COP(=O)(O)OP(=O)(O)OP(=O)(O)O)[C@@H](O)[C@H]2O)c(=O)[nH]1: 2%
COc1ccc(-c2cc(=O)c3c(O)c(OC)c(OC)c(OC)c3o2)cc1: -5%
C[C@@H](OC[C@@]1(c2ccccc2)CC[C@]2(CCC(=O)N2)CN1)c1cc(C(F)(F)F)cc(C(F)(F)F)c1: 0%
COc1ccc(O)cc1OC: -14%
O=c1c(O[C@@H]2O[C@H](CO[C@@H]3O[C@H](CO)[C@@H](O)[C@H](O)[C@H]3O)[C@@H](O)[C@H](O)[C@H]2O)c(-c2ccc(O)c(O)c2)oc2cc(O)cc(O)c12: 40%
Cc1nc(-c2ccc(OCC(C)C)c(C#N)c2)sc1C(=O)O: -9%
CC1=CC(=O)C(C(C)C)CC1 (stereo not shown): 36%
O=C(/C=C/c1ccc(O)cc1)NCCc1c[nH]c2ccc(O)cc12: -17%
CC1=C(CO)C(=O)O[C@@H]([C@@H](C)[C@H]2CC[C@H]3[C@@H]4C[C@H]5O[C@]56[C@@H](O)C=CC(=O)[C@]6(C)[C@H]4CC[C@]23C)C1: 4%
COC(=O)c1cc(OC)c2c(c1-c1c(C(=O)OC)cc(OC)c3c1OCO3)OCO2: -5%
COC(=O)C1=CO[C@@H](O[C@@H]2O[C@H](CO)[C@@H](O)[C@H](O)[C@H]2O)[C@H]2[C@@H]1C=C[C@@]2(O)CO: 7%

Series 3
Target: Beta-1 adrenergic receptor (ADRB1, Homo sapiens, UniProt P08588)
UniProt P08588, sequence (whole entry, looked up): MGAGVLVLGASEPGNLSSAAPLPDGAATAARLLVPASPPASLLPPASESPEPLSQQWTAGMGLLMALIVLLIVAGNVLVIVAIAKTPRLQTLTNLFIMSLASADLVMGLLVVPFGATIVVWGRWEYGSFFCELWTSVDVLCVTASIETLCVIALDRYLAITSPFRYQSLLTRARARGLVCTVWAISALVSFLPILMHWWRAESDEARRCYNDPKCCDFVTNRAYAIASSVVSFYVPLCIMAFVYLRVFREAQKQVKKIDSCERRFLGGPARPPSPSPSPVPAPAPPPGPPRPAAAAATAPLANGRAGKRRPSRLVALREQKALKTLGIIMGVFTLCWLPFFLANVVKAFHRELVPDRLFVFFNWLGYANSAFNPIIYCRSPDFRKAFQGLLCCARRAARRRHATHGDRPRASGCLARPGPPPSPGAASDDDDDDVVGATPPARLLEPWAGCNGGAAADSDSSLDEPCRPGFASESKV
Mode: agonist
Endpoint: Emax
CN(CCc1ccc(Cl)c(Cl)c1)CC(O)COc1ccc(N[S+](C)(=O)[O-])cc1 (stereo not shown): 39.5%
O=C1CCN(Cc2ccccc2OCC(O)CN2CCCCC2)CCN1 (stereo not shown): 95.8%
CC(C)(C)NCC(O)COc1cccc2c1C[C@H](O)[C@H](O)C2 (mixture of isomers): 62.1%
Nc1nc(CC(=O)Nc2ccc(CCNC[C@H](O)c3ccccc3)cc2)cs1: 97.7%
CC(C)NCC(O)c1ccc2ccccc2c1 (stereo not shown): 97.5%
Cc1cc(O)c(C(C)(C)C)cc1Sc1cc(C(C)(C)C)c(O)cc1C: 63.2%
COc1ccccc1N1CCN(CCCCN2C(=O)CCC2=O)CC1: 66.1%
CCOC(=O)COc1ccc2c(c1)C[C@@H](NC[C@H](O)c1cccc(Cl)c1)CC2: 89.2%

Series 4
SMILES: O=C1NC(c2ccccn2)Sc2ccccc21 (stereo not shown)
Read-out: cell-free assay
Technique: competition with immobilised ligand
Tested at: 1 µM
Endpoint: remaining binding
Serine/threonine-protein kinase SIK3 (SIK3, Homo sapiens, UniProt Q9Y2K2): 70%
Rhodopsin kinase GRK7 (GRK7, Homo sapiens, UniProt Q8WTQ7): 86%
G protein-coupled receptor kinase 4 (GRK4, Homo sapiens, UniProt P32298): 100%
Protein kinase C eta type (PRKCH, Homo sapiens, UniProt P24723): 100%
Mitogen-activated protein kinase kinase kinase 9 (MAP3K9, Homo sapiens, UniProt P80192): 88%
Tyrosine-protein kinase JAK2, JH1 (JAK2, Homo sapiens, UniProt O60674): 84%
Microtubule-associated serine/threonine-protein kinase 1 (MAST1, Homo sapiens, UniProt Q9Y2H9): 91%
Tyrosine-protein kinase receptor Tie-1 (TIE1, Homo sapiens, UniProt P35590): 65%
Tyrosine-protein kinase BTK (BTK, Homo sapiens, UniProt Q06187): 74%
Tyrosine-protein kinase Lck (LCK, Homo sapiens, UniProt P06239): 80%
Dual specificity mitogen-activated protein kinase kinase 3 (MAP2K3, Homo sapiens, UniProt P46734): 81%
Cyclin-dependent kinase 4, with cyclin D1 (CDK4, Homo sapiens, UniProt P11802): 91%
Mitogen-activated protein kinase kinase kinase 2 (MAP3K2, Homo sapiens, UniProt Q9Y2U5): 82%
Serine/threonine-protein kinase D2 (PRKD2, Homo sapiens, UniProt Q9BZL6): 96%
Macrophage-stimulating protein receptor (MST1R, Homo sapiens, UniProt Q04912): 100%
Serine/threonine-protein kinase RIO2 (RIOK2, Homo sapiens, UniProt Q9BVS4): 83%
Activin receptor type-1 (ACVR1, Homo sapiens, UniProt Q04771): 82%
Tyrosine-protein kinase ITK/TSK (ITK, Homo sapiens, UniProt Q08881): 77%
Serine/threonine-protein kinase WNK2 (WNK2, Homo sapiens, UniProt Q9Y3S1): 100%
TGF-beta receptor type-2 (TGFBR2, Homo sapiens, UniProt P37173): 85%
Mitogen-activated protein kinase 13 (MAPK13, Homo sapiens, UniProt O15264): 100%
G protein-coupled receptor kinase 3 (GRK3, Homo sapiens, UniProt P35626): 42%
Ribosomal protein S6 kinase alpha-1, N-terminal kinase domain (RPS6KA1, Homo sapiens, UniProt Q15418): 100%
Ribosomal protein S6 kinase beta-1 (RPS6KB1, Homo sapiens, UniProt P23443): 75%
Misshapen-like kinase 1 (MINK1, Homo sapiens, UniProt Q8N4C8): 72%

For quick reference, copied from above (series 1):
O=C1Nc2ccc(Br)cc2/C1=C/c1cc2c([nH]1)CCCC2: 76.2%
O=C1NC(=O)c2c1c1c3ccccc3[nH]c1n1cncc21: 84.4%
O=c1cc(N2CCOCC2)oc2c(-c3ccccc3)cccc12: 94.6%
N#Cc1cnc2cnc(NCc3cccnc3)cc2c1Nc1ccc(F)c(Cl)c1: 94.3%
c1ccc2c(-c3ccncc3)c[nH]c2c1: 95%
